Measurements of several laboratories.
Every numbered part comes from another study and shows a few of its results, in no order.

Set 1 — technique: protein binding microarray; molecule type: double-stranded DNA, one strand shown; medium: in vitro; tested at: not given; reference: not given; reading: higher = stronger binding
Target: Histone acetyltransferase KAT6A, winged helix 1, GST fusion (KAT6A, Homo sapiens, UniProt Q92794, residues 1-85)
Notes: 8-mer, flanks averaged, mean of 2 arrays, mostly near background
Target sequence (chain): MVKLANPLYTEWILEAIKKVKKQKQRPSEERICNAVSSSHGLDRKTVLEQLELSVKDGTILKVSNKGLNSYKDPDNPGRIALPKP
Strand | E-score
ACGGAGCA | -0.00505
ACGGAGCC | 0.23
GCCGGCGA | 0.403
CCAGTAAC | 0.102
CACTATAG | -0.138
GGTCAGAC | -0.0211
CTGAATTA | -0.06
ACATTCCG | 0.102
CTGTACCA | -0.131
AGTAACCA | -0.0646
ACCAACTC | -0.296
CAAATCCG | 0.0766
CAGAATAG | -0.101
AATAAGCG | 0.118
AATGTGAA | -0.143

Set 2 — technique: RNA Bind-n-Seq; molecule type: RNA; medium: in vitro; tested at: not given; reference: input RNA pool; reading: higher = stronger binding
Target: RING finger protein unkempt homolog, zinc fingers 1-6, GST-SBP tag (UNK, Homo sapiens, UniProt Q9C0B0, residues 30-357)
Chain of UniProt Q9C0B0 (30-357, looked up): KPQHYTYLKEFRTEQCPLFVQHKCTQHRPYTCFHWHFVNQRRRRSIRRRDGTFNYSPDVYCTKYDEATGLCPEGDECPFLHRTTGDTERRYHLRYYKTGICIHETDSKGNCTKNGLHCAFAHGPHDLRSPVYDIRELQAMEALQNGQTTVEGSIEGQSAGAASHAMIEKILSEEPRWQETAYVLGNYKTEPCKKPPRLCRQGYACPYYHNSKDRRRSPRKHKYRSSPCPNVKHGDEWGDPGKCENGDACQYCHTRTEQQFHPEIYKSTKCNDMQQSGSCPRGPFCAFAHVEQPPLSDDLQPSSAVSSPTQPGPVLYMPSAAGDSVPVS
Notes: RNA with constant flanks, human and mouse sites, ends assumed
Strand | bound/input enrichment [ratio]
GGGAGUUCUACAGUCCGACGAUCGCAGUAAUGACUACCUAGGCAUGAGUCGACACCCACGGGUGUGUGGGGCUGUCAUGUGAGUAGCUCUCAGUUUUCACCUACCACAGGCGUUAUUUGGCAGGACUUGGGUGGCUUGUACAGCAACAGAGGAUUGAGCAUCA | 0.213
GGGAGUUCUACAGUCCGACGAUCUCAUUUCCUUCAUAUUCUCAGAAGUCAGAAGAUGAUUCAGCUAAAUUUGACAGUAAUGAAGAAGAUUCUGCUUCUGUUUUUUCACCAUCAUUUGGUCUGAAACAGACAGAUAAAGUUCCACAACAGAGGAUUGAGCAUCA | 0.106
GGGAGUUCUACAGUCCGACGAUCUGUAUUAAAUCAAUUUAUCACUGUUUGAAGCUUUGAAUACCUGCAAUCUUUGCCAAGAUACUUUUUUAUUUAAAAAAAUAACUGUGUAAAUAUUACCCUGUAAUAUUAUAUAUACUUAAUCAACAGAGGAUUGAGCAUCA | 0.386
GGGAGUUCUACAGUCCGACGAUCGCUAAGUGCACCUUGAAACGAUACACCAAUCAGACCUUUGAUAAGGUGAUGGGUCCCAUGUUGGAUGCUGCUACCAGAAAACCCAUCUGGCGACAUGAAAUUUUAGAUGCAGAUGGCAUUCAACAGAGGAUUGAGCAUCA | 0.3
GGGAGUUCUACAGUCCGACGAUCUCCACUCUAGGAUCUUUCCAAGGUGCUGCAUCGUCAGCAUCCCAUUUGCAUACGAGUGCCUCCCAACCAUACUCCUCUUUUGUGAAUCACUACAAUAGUCCAGCCAUGUACUCUGCCAGCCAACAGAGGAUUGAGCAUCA | 0.483
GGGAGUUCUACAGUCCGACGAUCUGCUCUUGAUCAGGGACAAGGGAGGUCAAGCUCUGACUAAUGCCAUGACCUGAUUAAGGGGUACAGCAGGGAGUUUUGUUGCUACAGCUCAUGAAUUAACCUGUCCCAACCUAAUCCCCCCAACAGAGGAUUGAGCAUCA | 0.109
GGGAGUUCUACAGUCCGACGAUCCUCCGAUUUGGAAAAACUAAACAUCUCUCCUGGAGUUCUGGGCAGAGAGAAAACCAGUAGUCAUUUUCUUCGGAACUGUGGAAUGUACCCUUGGGAGUCCCACAAAUCAGGCAGAAGAUGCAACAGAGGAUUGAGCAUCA | 0.136

Set 3 — technique: RNA Bind-n-Seq; molecule type: RNA; medium: in vitro; tested at: 365 nM; reference: no-protein control; reading: higher = stronger binding
Target: RNA binding protein fox-1 homolog 2, RRM domain, GST-SBP tag (RBFOX2, Homo sapiens, UniProt O43251-10, residues 100-194)
Notes: natural RNA segment, single round, ends assumed
Target sequence (chain): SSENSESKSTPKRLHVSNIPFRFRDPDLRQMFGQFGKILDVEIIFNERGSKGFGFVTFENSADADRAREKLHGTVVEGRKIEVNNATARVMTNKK
Strand | RBNS enrichment (R)
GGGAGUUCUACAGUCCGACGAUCAGUAUUGAAUGUACUUUGUAUAAUUUUAGUGGAAUUGUUAUUGAGAAUAAAAUUUUUACAAUCAUAACUGGCUUUUUCCAAGUAACUAGCUGCAGACUCUGAUGAAAGAAUGGAAUUCUCGGGUGCCAA | 0.784
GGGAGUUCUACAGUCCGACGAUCUGAUAUAACCCUUUGCUUCUUAUAAUGAGUGCGAUAUAUGUUGUCGAGGCUGUUCUUCAAGAAUUAAAAUUGAAGUGAAAAUUUAAACAAAAAUAAAAGAAUUUAGCAAAUGGAAUUCUCGGGUGCCAA | 1.18
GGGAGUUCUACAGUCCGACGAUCUAAAGGUAGAGAUUAAACUGUAUAGACAGCAUAGGGAUGAAAGGAACCAAGCGUUUCUGUGGGAUUGAGACUGGUACGUGUACGAUGAACCUGCUGCUUUGUUUUCUGAGUGGAAUUCUCGGGUGCCAA | 1.12
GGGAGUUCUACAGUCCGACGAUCGUCUGCUCCUAGCCUGUGCUCUGCCAGCAGCACAGACAUCUGCUCCAUCAGACCUCUUCCAUUUUGCACAGGGAGUGCAGGAGGUGAAUGUUCACUUUCUGUUCUCCAGUUGGAAUUCUCGGGUGCCAA | 1.07
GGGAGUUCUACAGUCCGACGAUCCUGUCUCAAAGAACAUUAAACUCUUCUGGAACUGGCCCUUGACAGCCUGGGACCAGGGAAACUUUUCACACCAUCUUGGUCUUUGUCACAGGAAUCUAAAACCAGCCAUUUGGAAUUCUCGGGUGCCAA | 0.356
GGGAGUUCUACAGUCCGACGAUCUCAAACCCAGCCUGACCGCUUCUGACGCCGGGAUGGCCUCGUUACUAGACUUUUCUUUUUAAGGAAGUGCUGUUUUUUUUUGAGGGUUUUCAAAACAUUUUGAAAAGCAUUGGAAUUCUCGGGUGCCAA | 0.354
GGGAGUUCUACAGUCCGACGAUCUGGGCAGGAGGGCUUGUGCAGGGUUUUGUAAGCAGUGAUCUAGUUUCAUUAAAAAAAGAAAACAAUACCAUAACCACCUCCCCGUGUCUGUCUGCACCAGGAGCACCUGGUGGAAUUCUCGGGUGCCAA | 0.323
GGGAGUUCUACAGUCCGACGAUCAGAGGAGACUGAGCUAACUUCAGCUUGCUUGCUUGCUUGCUUGCUUGCUUGCUUGCUUGCUUGCCCUUAAAGAACAGAUCAAGCCUACAUACUCCAUACACUAUACUUCAUGGAAUUCUCGGGUGCCAA | 0.408
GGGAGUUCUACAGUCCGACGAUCAGUGGGCUUUGAAGUGUGUGCUGCUUACUCCUUUCAUCUUUCUCCCCGCUUCCCCAGUCUUUAAACAUUGGACGCUAUUUACUCAGCUACCCAGUAGAGCUUGAAGCUGAUGGAAUUCUCGGGUGCCAA | 0.565
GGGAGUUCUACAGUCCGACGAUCCCAGUCUGAUCUACAUUGUGAGUUCCAAGACAGCCAAAACUACAUAAUGAGACCCUGUCUCAAAAAAAGAAAAAAAAAUUUUUUGAAAUUUAGUAGGUUUUCACAAUUUUUGGAAUUCUCGGGUGCCAA | 0.717
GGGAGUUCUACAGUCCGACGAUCGGGAGACAGAGGAAGGAAGAUGGAGAUUGGAAGUGAGCAAAUGUGAAAAAUUCCUCUUUGAACCUGGCAGAUGCAGCUAGGCUCUGCAGUGCUGUUUGGAGACUGUGAGAUGGAAUUCUCGGGUGCCAA | 1.4
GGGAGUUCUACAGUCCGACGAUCCUCUUGUUAUGAACUAUUAGAAACUUUAGGCAAAAUCAAAAGUAUUUGCGGCAAAAUAAAGGCCUAUUCUACUCUUAUUUAAAGUGAAACACUGUAUACUUGUUUCUCUCUGGAAUUCUCGGGUGCCAA | 0.372

Set 4 — technique: RNA Bind-n-Seq; molecule type: RNA; medium: in vitro; tested at: 1 µM; notes: whole 134-nt RNA, ends assumed; with: 150 mM KCl; reference: input library; reading: higher = stronger binding
Target: Ras GTPase-activating protein-binding protein 1, RRM domain (G3BP1, Homo sapiens, UniProt Q13283)
Chain of UniProt Q13283 (whole entry, looked up): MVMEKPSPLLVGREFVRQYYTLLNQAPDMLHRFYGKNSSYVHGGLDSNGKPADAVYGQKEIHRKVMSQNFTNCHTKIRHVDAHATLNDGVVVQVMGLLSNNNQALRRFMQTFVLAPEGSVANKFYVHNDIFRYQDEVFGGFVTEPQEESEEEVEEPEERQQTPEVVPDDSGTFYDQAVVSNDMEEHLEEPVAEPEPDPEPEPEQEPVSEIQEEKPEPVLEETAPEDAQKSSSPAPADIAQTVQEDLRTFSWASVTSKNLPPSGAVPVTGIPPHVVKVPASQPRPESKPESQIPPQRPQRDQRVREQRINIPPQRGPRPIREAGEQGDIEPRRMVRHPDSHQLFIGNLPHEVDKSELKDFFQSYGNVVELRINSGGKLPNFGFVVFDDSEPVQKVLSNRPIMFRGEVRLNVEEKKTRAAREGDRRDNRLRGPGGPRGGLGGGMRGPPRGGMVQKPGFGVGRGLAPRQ
Strand | log2 enrichment
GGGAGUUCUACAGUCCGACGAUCUGGAUCUUGGAGGGACCAACUUCCGUGUGCUUUGGGUGAAAGUAACGGACAAUGGGCUCCAGAAGGUGGAGAUGGAGAAUCAGAUCUAUGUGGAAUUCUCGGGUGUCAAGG | -0.225
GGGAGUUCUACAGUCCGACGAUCUAACUUUAGAGGAGGAUCUGAUGGAUAUGGCAGUGGACGUGGAUGUGGGGAUGGCUAUAAUGGGUAUGGAGGAGGACCUGGAGGUGGCAAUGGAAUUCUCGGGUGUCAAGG | -0.578
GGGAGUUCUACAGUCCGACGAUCCUCAAGUCCUGUGCUACACAUCGUAUGUACCGAAUCGGUUGGGUUGGUUGGGGAAAGUAUUAUGUUACGCCGUUCGGAUCUGCACUUCCAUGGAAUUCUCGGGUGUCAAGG | -0.152
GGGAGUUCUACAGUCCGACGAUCCUCAAGUCCUGUGCUACACAUCGUAUGUACCGAAUCGGGGAGGGAGGGAGGGGAAAGUAUUAUGUUACGCCGUUCGGAUCUGCACUUCCAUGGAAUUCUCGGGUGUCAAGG | 0.657
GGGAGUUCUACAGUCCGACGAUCAAGUCCUGUGCUACACAUCGUAUGUACCGAAUCGGGUUUUGGUUUUGGGGUUUUGGGAAAGUAUUAUGUUACGCCGUUCGGAUCUGCACUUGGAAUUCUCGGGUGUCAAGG | -0.0171

Set 5 — technique: protein-binding microarray; molecule type: double-stranded DNA, one strand shown; medium: in vitro; tested at: 2540 nM top; notes: 60-bp whole probe; with: salmon DNA 0.4 mg/ml; reference: random background probes; reading: higher = stronger binding; all sequences stand within: GCCTAGCAC … GTCTTGATTCGCTTGACGCTGCTG
Target: Interferon regulatory factor 3, full length, phosphomimetic (IRF3, Homo sapiens, UniProt Q14653, residues 1-427, S386D/S396D/S398D/S402D/T404D/S405D)
Target sequence (chain): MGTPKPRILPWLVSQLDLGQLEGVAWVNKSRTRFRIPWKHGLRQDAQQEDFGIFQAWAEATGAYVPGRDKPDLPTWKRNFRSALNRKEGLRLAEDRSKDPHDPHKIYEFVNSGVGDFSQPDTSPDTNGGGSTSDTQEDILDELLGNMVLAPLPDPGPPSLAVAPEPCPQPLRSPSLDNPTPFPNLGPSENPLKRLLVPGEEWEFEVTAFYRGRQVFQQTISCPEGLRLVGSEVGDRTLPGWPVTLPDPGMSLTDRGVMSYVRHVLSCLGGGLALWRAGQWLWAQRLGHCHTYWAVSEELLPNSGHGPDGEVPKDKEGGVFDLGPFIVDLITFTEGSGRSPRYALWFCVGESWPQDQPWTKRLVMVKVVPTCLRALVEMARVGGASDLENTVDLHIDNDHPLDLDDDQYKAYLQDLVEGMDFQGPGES
Strand | fitted relative affinity [z-score]
TTAGTACTGGACACTGGGTTAGTGCTA | -0.521
GACGGACTGGGGAATGGGGACGTGCTA | -0.713
GATGATTCCAGTTTCGAGACGTGCTAG | 3.17
GCTTCTATGTAGTTGATGAAGTGCTAG | 0.131
AGAAACTTGTATTTGTCCCTGTGCTAG | 0.618
ACAGGAGTGTTTCTCAGTTTGTGCTAG | 0.728
TCACCTTTCTCAACCTCACTGTGCTAG | 5.17
GCCTTGTTCGTCGCTCCGCTGTGCTAG | -0.207
GATGGTCTCGGTATCGGGACGTGCTAG | 1.53
TCATGTTTATGTCTGGGACTGTGCTAG | -0.207
TTAGGACTGGGTTTCTGTTAGTGCTAG | 0.629
CAGTTAATGAAAATTCTAATTGTGCTA | 0.547
GACGGAATCGGGACTGGGGACGTGCTA | -0.0627
